Published values from different studies.
Parts stem from different laboratories: compare values within a part only.

Sample 1
Target: Histone acetyltransferase KAT6A, winged helix 1, GST fusion (KAT6A, Homo sapiens, UniProt Q92794, residues 1-85)
Method: protein binding microarray
Form: double-stranded DNA, one strand shown
Matrix: in vitro
Tested at: not given
Notes: 8-mer, flanks averaged, mean of 2 arrays, mostly near background
Relative to: not given
Reading: higher = stronger binding
Residues (chain): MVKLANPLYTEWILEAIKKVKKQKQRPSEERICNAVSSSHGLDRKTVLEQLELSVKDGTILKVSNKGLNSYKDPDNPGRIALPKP
For `AACCTATA`, the E-score was 0.0334.
`CCGATCGG` gave an E-score of 0.33.
With `ACGAAGTA` the E-score was -0.087.
`CTGACTTA` gave an E-score of -0.109.
With `CATGGAAG` the E-score was -0.173.
With `TTAACTAA` the E-score was 0.00574.
For `CTAGTCTA`, the E-score was -0.196.
`GGGTCCCA` has an E-score of 0.00465.
For `CATGATGG`, the E-score was -0.278.
With `CCACGGGC` the E-score was 0.301.
`AGTTTATA` has an E-score of 0.0143.
`CATACAAG` has an E-score of -0.172.
For `ACAAATAC`, the E-score was -0.0863.
`CCTAGGAA` has an E-score of -0.143.
`GACTGCAC` has an E-score of -0.139.

Sample 2
Target: Centromere-binding protein 1, full length, His-tagged (CBF1, Saccharomyces cerevisiae, UniProt P17106, residues 1-351)
Sequence of UniProt P17106 (whole entry, looked up): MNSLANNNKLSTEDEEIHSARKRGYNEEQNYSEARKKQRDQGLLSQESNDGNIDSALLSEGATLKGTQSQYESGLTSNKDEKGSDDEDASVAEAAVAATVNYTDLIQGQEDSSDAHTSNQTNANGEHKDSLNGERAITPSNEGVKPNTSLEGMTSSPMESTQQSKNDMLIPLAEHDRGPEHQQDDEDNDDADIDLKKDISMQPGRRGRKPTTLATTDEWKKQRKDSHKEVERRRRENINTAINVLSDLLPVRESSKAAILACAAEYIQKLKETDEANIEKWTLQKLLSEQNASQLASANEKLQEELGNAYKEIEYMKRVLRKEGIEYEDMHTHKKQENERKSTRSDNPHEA
Method: competition protein-binding microarray
Form: double-stranded DNA, one strand shown
Matrix: in vitro
Tested at: 2 µM
Notes: whole 60-bp probe, lowest competitor level
With: Pho4 competitor, 0.05 µM
Reading: higher = stronger binding
`AATTGAAACCTCCGTCACGTTTTCTGATAATGTTGCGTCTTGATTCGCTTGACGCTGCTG` has a fluorescence intensity of 650 a.u.
With `AAATTACTAAGTTGAGACGTGGGTGACGCCGTATGAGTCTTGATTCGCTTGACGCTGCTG` the fluorescence intensity was 64.2 a.u.
The fluorescence intensity of `CCAACCGGTGTCCACCGCGTGGTCCAGGCGACTTATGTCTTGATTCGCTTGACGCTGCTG` is reported as 78.5 a.u.
For `AGGACCCTCTCTCAACATGTGGGTAATGCGAATCAAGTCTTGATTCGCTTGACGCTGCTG`, the fluorescence intensity was 80.9 a.u.
`TGAAACATTTTTCAACGCGTGTAACAATTTGCATCTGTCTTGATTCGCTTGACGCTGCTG` has a fluorescence intensity of 103 a.u.
For `CTTTCCCGATCTTGTCACTATACTTTAGCACATTTGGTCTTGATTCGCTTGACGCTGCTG`, the fluorescence intensity was 78.2 a.u.
For `CCGATTGGTTACAGTTCCGTGATGGGCAAGATTACTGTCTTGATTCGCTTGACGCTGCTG`, the fluorescence intensity was 66.2 a.u.
The fluorescence intensity of `CGTCCTAGTGATTGCACCGTGGGTGCCATGAGGAAGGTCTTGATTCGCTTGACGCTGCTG` is reported as 75.2 a.u.
The fluorescence intensity of `CAAGGGCGCCCCGGCCACGTGGAATAATACTGACTTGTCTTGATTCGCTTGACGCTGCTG` is reported as 604 a.u.
`AAATTACTAAGTTGGGCAGTGGGTGACGCCGTATGAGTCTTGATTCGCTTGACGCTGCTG` gave a fluorescence intensity of 60.1 a.u.
`CTTCTGTAAATTTGACAGGTGGGTGGACGCGCCCCGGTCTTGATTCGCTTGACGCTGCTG` gave a fluorescence intensity of 71.1 a.u.
`CTTCTGTAAATTTGTTACGTGGGTGGACGCGCCCCGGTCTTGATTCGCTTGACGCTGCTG` gave a fluorescence intensity of 74.3 a.u.
For `TGAATCTAGACCGTCATCGTGCGGACTCCTAGATCCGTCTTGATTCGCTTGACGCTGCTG`, the fluorescence intensity was 59.4 a.u.

Sample 3
Target: Hepatocyte nuclear factor 3-alpha (Foxa1, Mus musculus, UniProt P35582, residues 1-468, full length assumed)
Method: EMSA with sequencing
Form: double-stranded DNA, one strand shown
Matrix: in vitro
Tested at: 10 and 20 nM
Notes: whole designed probe, mean of two concentrations, ends assumed
Relative to: negative control set to 0
Reading: higher = stronger binding
Residues (chain): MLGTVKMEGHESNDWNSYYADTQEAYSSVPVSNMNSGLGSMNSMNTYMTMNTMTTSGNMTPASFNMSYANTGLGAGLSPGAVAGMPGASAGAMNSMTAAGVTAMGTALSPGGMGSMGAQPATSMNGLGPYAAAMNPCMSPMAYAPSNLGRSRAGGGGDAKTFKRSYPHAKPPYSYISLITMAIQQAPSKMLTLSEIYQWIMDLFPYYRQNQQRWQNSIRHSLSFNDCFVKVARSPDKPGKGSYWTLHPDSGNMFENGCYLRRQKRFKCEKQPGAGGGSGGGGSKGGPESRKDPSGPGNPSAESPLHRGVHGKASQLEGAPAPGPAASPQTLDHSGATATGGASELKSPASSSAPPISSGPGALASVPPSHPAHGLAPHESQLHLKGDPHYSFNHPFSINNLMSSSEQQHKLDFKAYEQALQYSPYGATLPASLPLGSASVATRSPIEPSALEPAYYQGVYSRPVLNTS
`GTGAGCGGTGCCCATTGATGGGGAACTTTCAGAGGACATCCTCTCCCCACCCAACCCCTACACCCGCCATGGCCCCAGGTTCATCTCTGCCGGCCCATATGACTCATTTGCTCTGGTGAGATTACTCAGGCACCAGATTACCCTCGTTTATGGCCGGCTTATTTATGGCTGGCTTCCAGGAACACAAGCTCCAGGAAGCGGTGGCCAAGAAAGTAGTGGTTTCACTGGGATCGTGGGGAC`: “normalised bound fraction” -0.0699 ratio.
`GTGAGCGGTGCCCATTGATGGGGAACGTGTGTGCGCGCGCGTGTGTGTGTGTTTTCTTAAGCCGGGCTATTCAAACCCTGCTGCAATTCTCCGGTACAATGATTCATAAGGGGCACGTTTATTTGCATTAGATTGCAAACGGCGCGGTTCGCGCACTTTGCAGCCGGCCCGGTGGAGCAGCCAGTGCCGGATTTCTCCCTTTTTTTGCAGATCTGCAGATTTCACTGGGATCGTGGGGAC` — result for “normalised bound fraction”: 0.434 ratio.
For `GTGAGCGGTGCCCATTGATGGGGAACGACAGTACATGTTTTAGGATTTTTGGACCACACAGTCTCTGTCACAATGACTCAGCTTTGCCATTGTAGCGTGCAAACAGCCACAAACCATATGCAAACAAATGGAGGGTGTGGTTATGCCAATAAAACTTTATTTACAAAAGCAGGAGGACAGTGGAGTTGGCTTGCAGACAGTCATTTGCAGAGCCCTGATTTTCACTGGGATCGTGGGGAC`, “normalised bound fraction” read 0.462 ratio.
Under “normalised bound fraction”, `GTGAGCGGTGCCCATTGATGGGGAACATCTTCCCCCTCTTCCTTGCCCCACCAGCTCACCTACGGGGGTTATTTGCACAAAGGAAAATAAATAAAGCCGGCATTCGTTAACGCAGTTCACGCGCATACTGCTGTTTGCTCTGCATCTAACATGGTCCTTACGCGAGGCGTGGCTCCGGGAGAGCAAAGCACCGTGTCAGGCGCATGATCCGGGGTGGCCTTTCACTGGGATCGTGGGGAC` is recorded as 0.4 ratio.
`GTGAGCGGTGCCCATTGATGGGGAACCAAGTTTGTGGTCCAGGAGCAACAGGTTATGCCATACAGCCTAGGTGTGTAGTAGGCTACACACCGCCATGACTCATGTTGTACACTCTACAATGTTTGCACAATGATGAAATCCCATGTCACATTTCTCAGAACATACCCCTGTTGTTAAGCGATACATGACTGTACTTTTTTTAAAAAGTCCAAGGATATATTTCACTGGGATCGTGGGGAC` — result for “normalised bound fraction”: 0.447 ratio.

Sample 4
Target: RING finger protein unkempt homolog, zinc fingers 1-6, GST-SBP tag (UNK, Homo sapiens, UniProt Q9C0B0, residues 30-357)
Sequence of UniProt Q9C0B0 (30-357, looked up): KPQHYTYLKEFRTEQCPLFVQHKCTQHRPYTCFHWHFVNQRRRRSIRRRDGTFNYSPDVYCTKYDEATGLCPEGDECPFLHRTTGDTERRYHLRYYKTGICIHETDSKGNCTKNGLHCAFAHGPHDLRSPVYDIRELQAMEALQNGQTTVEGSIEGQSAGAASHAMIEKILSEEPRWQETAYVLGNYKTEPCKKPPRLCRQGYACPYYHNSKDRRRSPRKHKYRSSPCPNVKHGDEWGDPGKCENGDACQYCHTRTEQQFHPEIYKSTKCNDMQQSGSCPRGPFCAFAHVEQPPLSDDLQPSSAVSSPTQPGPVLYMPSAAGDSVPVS
Method: RNA Bind-n-Seq
Form: RNA
Matrix: in vitro
Tested at: not given
Notes: RNA with constant flanks, human-mouse chimeric sites, ends assumed
Relative to: input RNA pool
Reading: higher = stronger binding
With `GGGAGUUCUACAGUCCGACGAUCCCUCUGCCCCGCUCUGCAGCCUGGGGACACUGGGCUGGGACCAGAAUCCAGCUUUCUUUUAAAACUCUCAGUGUAACUGUAUCCCGUUUUUUUCUUUUUUUUUUAAAUAGUGUAUUUUUUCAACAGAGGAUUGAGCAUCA` the bound/input enrichment was 20.3 ratio.
The bound/input enrichment of `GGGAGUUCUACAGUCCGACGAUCACACAAUAUGAGACCAACAGCAUGGACUUCAAAGUUGGGGCAGAUGGGACAGUCUUCGCCACCCGGGAGCUGCAGGUCCCCUCAGAGCAGGUGGCGUUCACGGUGACUGCGCGGGAAAGCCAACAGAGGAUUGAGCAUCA` is reported as 0.19 ratio.
`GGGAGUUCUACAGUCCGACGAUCGCUGGAUCUUCUAAGUACCAGUGGGACAUUAUGAAAUCCCUUGGCCUCUCUGAUGACGACAUAGUGAAGUUUUCUGAAGCAGAGCACUGGCUUGAUUAUUUCCCACCACUGGCCGUUCAGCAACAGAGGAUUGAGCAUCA` has a bound/input enrichment of 0.122 ratio.
The bound/input enrichment of `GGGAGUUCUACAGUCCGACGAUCAAAGAGAAACUAAAGCAACUAAUAGAGAAGAGGAUUGGCAAAGAGAAUUUCAUAGAGGAAACUAGGAUUAUUAGCAAAACAUGAGUUUAUUCCAGAGCGUCUCAGAAACCCCAGCCAAACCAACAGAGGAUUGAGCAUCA` is reported as 8.55 ratio.
`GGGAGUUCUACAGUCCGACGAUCGCAGGAUCUUCUAAGUACCAGUGGGACAUUAUGAAAUCCCUUGGCCUCUCUGAUGACGACAUAGUGAAAUUUUCUGAAGCAGAGCACUGGCUUGAUUAUUUCCCACCACUGGCCGUUCAGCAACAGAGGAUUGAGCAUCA` gave a bound/input enrichment of 0.22 ratio.

Sample 5
Target: Sal-like protein 4, full length isoform A (SALL4, Homo sapiens, UniProt Q9UJQ4, residues 1-1053)
Sequence of UniProt Q9UJQ4 (whole entry, looked up): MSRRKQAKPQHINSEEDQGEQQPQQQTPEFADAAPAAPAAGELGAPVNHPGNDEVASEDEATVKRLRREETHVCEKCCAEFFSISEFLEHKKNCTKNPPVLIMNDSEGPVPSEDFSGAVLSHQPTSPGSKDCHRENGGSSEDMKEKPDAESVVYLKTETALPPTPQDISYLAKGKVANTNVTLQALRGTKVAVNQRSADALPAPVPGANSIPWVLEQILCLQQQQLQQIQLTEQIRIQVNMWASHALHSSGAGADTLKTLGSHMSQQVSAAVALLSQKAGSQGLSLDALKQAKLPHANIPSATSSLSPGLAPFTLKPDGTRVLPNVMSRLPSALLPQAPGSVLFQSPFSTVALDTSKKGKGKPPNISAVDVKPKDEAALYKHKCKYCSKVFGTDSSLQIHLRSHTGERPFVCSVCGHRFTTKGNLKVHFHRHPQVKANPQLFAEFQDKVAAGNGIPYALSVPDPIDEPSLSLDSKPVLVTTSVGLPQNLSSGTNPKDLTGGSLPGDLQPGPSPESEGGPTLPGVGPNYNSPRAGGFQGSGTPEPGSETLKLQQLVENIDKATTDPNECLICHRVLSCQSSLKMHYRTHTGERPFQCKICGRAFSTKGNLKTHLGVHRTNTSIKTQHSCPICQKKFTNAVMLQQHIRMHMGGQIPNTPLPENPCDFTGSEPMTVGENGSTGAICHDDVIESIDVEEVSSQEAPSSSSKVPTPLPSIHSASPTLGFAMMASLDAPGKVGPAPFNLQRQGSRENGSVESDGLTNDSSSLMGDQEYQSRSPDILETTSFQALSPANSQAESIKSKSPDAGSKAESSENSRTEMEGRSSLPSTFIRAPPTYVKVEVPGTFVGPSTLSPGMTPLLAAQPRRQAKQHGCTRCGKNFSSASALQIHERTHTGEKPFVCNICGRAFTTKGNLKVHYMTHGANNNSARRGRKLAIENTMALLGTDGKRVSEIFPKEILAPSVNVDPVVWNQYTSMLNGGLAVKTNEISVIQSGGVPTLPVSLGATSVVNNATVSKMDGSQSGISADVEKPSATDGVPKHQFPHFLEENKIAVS
Method: universal PBM
Form: double-stranded DNA, one strand shown
Matrix: in vitro
Tested at: 600 nM
Notes: 8-mer, flanks averaged, mean of replicates
Reading: higher = stronger binding
`ATAGCACA` has an E-score of 0.11.
`ACTGACCT` gave an E-score of -0.0372.
`AATCCTGG` has an E-score of -0.112.
`CCGGCTGC` gave an E-score of -0.394.
For `AATCGTCT`, the E-score was 0.0172.
`ATTCCATC` gave an E-score of 0.197.
For `GGGGGCAA`, the E-score was -0.121.
For `ATCTCGAC`, the E-score was 0.0683.
The E-score of `CATATAGG` is reported as 0.246.
With `CTAGTGGA` the E-score was -0.198.
The E-score of `ATGTCCTG` is reported as -0.103.
`ATCTCCGC` gave an E-score of -0.247.
`AGTTGGAA` has an E-score of 0.0199.
`AAAAATTT` gave an E-score of 0.364.
The E-score of `AACAACTC` is reported as -0.0611.
With `CGACAGAA` the E-score was -0.00304.

Sample 6
Target: Prothrombin, mature alpha-thrombin (F2, Homo sapiens, UniProt P00734)
Method: aptamer microarray, sandwich
Form: DNA with 2'F-ANA
Matrix: in vitro
Tested at: 200 nM
Notes: whole 15-mer aptamer, many near background
With: Cy3 exosite-II aptamer, 400 nM
Reading: higher = stronger binding
Oligonucleotide: GGTTGGTGTGGTTGG
Under “mean fluorescence intensity”, `2'F-ANA at 2 4 8 11 12 13 14 15` is recorded as 110 a.u.
For `2'F-ANA at 1 2 4 5 7 8 9 10 11 13 15`, “mean fluorescence intensity” read 87.4 a.u.
For `2'F-ANA at 4 5 6 7 8 10 11 14 15`, “mean fluorescence intensity” read 55.4 a.u.
For `2'F-ANA at 3 4 6 7 8 15`, “mean fluorescence intensity” read 707 a.u.
Under “mean fluorescence intensity”, `2'F-ANA at 1 2 5 6 9` is recorded as 74.3 a.u.
For `2'F-ANA at 3 4 5 8 11 13 14 15`, “mean fluorescence intensity” read 48.7 a.u.
For `2'F-ANA at 7 10 13 15`, “mean fluorescence intensity” read 138 a.u.
`2'F-ANA at 1 2 6 8 10` — result for “mean fluorescence intensity”: 61.1 a.u.
Under “mean fluorescence intensity”, `2'F-ANA at 2 4 6 7 8 10 11 14` is recorded as 75.1 a.u.
For `2'F-ANA at 1 4 7 10 11 13 15`, “mean fluorescence intensity” read 46.9 a.u.
`2'F-ANA at 1 2 4 6 8 11 12 14 15`: “mean fluorescence intensity” 60.4 a.u.
For `2'F-ANA at 4 10 11 12`, “mean fluorescence intensity” read 122 a.u.
`2'F-ANA at 6 8 9 11 13 15` — result for “mean fluorescence intensity”: 328 a.u.
`2'F-ANA at 5 6 7 9 14`: “mean fluorescence intensity” 45.6 a.u.
Under “mean fluorescence intensity”, `2'F-ANA at 3 4 8 10 11 12 13 15` is recorded as 254 a.u.
`2'F-ANA at 1 2 6 7 8 12 13 15`: “mean fluorescence intensity” 265 a.u.
`2'F-ANA at 2 8 9 10 11 14`: “mean fluorescence intensity” 80.7 a.u.
`2'F-ANA at 3 4 7 9 10 11`: “mean fluorescence intensity” 337 a.u.

Some of these lines once more (sample 1):
`CCGATCGG` gave an E-score of 0.33.
For `CTAGTCTA`, the E-score was -0.196.
`CTGACTTA` gave an E-score of -0.109.
For `ACAAATAC`, the E-score was -0.0863.
With `TTAACTAA` the E-score was 0.00574.
`GACTGCAC` has an E-score of -0.139.
With `CATGGAAG` the E-score was -0.173.
With `ACGAAGTA` the E-score was -0.087.
`AGTTTATA` has an E-score of 0.0143.
`GGGTCCCA` has an E-score of 0.00465.
